Measurements pooled from the literature.
A part holds a random share of what one study measured. Substitutions count along the parent as printed.

Set 1 — method: RNA Bind-n-Seq; molecule type: RNA; medium: in vitro; tested at: 365 nM; baseline: no-protein control; direction: higher = stronger binding
Target: RNA binding protein fox-1 homolog 2, RRM domain, GST-SBP tag (RBFOX2, Homo sapiens, UniProt O43251-10, residues 100-194)
Setting: natural RNA segment, single round, ends assumed
Constant ends, left off below: GGGAGUUCUACAGUCCGACGAUC … UGGAAUUCUCGGGUGCCAA
Residues (chain): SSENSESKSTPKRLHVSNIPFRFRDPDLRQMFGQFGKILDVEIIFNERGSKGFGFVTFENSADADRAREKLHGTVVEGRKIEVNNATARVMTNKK
For `GCUGAGCAGCUCAGGCUGUGGCCCUUACCUCCAGUCCUCACCUCAACCUGCGCUGCAGCCUCCCUCCCCCCUGCACAUCACUGGCAUGUGUGCUGCUUGACCACCCCCCC`, “RBNS enrichment (R)” read 1.48.
`GUGACCUGUGUAACUUAAAAAAUCUGAGGGUUUGAGAGAGGUUGCUCUAGAUUUCCAAUGACGAUACCCUGGCUGAAUAGGCUUUUCUCUUCCUUGGGCCUUUACUUCUU`: “RBNS enrichment (R)” 0.316.
Under “RBNS enrichment (R)”, `GCUCUAAUCUGUAGAUCAAAAUGUAGAAGUUUGUGCAUUAUUAAGAGGAAAGUCUUGUGCCAAGAAUAGUUUAACUGGAAAGAUACUACCUGGAAUAUUAGAUGGAAAGC` is recorded as 1.73.
`AGAGGAUGUGGCUUUGCAACUCAGAUCAGACAAAGAAUUUUUGAAUUGGCAGGCUUUAGCCUACAAAUGGGUCCCCCAAGUUUUCUAGAUAACAUCCUGCUCUCUGCAGG` — result for “RBNS enrichment (R)”: 0.361.
Under “RBNS enrichment (R)”, `AUCUGCGCAGCUCUGGUACCCUCUGUGGGUGCCAUCUCUACCUCUGACACAGACUGCCUGCCUUGAAGCUGAGAAGGCACAGGGCAAGGAGCCAAGGACCACAGAGCCUC` is recorded as 0.25.
Under “RBNS enrichment (R)”, `UCAUUAUGAAAGACAAAAAGCAUCACAAUAAGGCUUCCAGGUAGCCCUGUUCCCUAAUAGAAACAUUCCCCUUGUUUUCCAGCAGUGGGUGGCUUCCUCGAACGAUUAAA` is recorded as 0.549.
`CCCAAGCCCUGCAUCCCCACAUGCGGGGCAGAGGCCCUUCUCUCCGCCAAAUGUCUACACAGUAUACACAGGACAUCGUUGCUGCCGCCGUGACUGGUUUUCUGUCCCCA` — result for “RBNS enrichment (R)”: 0.675.
`CCUUGCUGCACCAGUGGCCAUUAGCUCCCGUCACCACUGCAACCCAGGGUCCCAGCUGGCUGGGUCCUCUUCUGCCCCCAGUGCCCUUCCCCUUGGGCUGUGUUGGAGUG` — result for “RBNS enrichment (R)”: 1.04.
Under “RBNS enrichment (R)”, `CCCCCACAAAGUUAUUUAAAAGAUGCCCUAGCAGCAAUCCACCAGUUUUUCUAAGCUAGAACCUUUGAGUCCCCCAAACUGCCUGAAGACUUAAGUUUUGUGGGCACUGG` is recorded as 0.888.

Set 2 — method: DHFR PCA, deep sequencing; medium: yeast; together with: (+)-ABA 58 µM; baseline: wild-type fitted maximum; direction: higher = stronger binding
Target: ABI1, truncated, D143A, DHFR fusion (Arabidopsis thaliana)
Setting: methotrexate growth selection, single substitutions
Starting sequence: PYL1, truncated, DHFR fusion (Arabidopsis thaliana); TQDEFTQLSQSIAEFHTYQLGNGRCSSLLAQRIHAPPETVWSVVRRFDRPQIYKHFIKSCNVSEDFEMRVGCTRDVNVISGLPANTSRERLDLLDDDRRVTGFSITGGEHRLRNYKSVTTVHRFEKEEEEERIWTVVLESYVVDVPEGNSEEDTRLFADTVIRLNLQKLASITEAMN
For `V70F`, “relative binding score” read 21.7%.
`F56Q`: “relative binding score” 3.61%.
`S11Y` — result for “relative binding score”: 73%.
Under “relative binding score”, `S27K` is recorded as 30.4%.
`G81I` — result for “relative binding score”: -19.1%.
`E139I`: “relative binding score” 68.4%.

Set 3 — target: CCNF, cyclin fold, Cln2 fusion (human); method: yeast growth competition, sequencing; medium: yeast; setting: strong parent motif; baseline: not given; direction: higher = stronger binding
Starting sequence: WEE1 docking peptide (human); HKTFRKLRLFDTP; partner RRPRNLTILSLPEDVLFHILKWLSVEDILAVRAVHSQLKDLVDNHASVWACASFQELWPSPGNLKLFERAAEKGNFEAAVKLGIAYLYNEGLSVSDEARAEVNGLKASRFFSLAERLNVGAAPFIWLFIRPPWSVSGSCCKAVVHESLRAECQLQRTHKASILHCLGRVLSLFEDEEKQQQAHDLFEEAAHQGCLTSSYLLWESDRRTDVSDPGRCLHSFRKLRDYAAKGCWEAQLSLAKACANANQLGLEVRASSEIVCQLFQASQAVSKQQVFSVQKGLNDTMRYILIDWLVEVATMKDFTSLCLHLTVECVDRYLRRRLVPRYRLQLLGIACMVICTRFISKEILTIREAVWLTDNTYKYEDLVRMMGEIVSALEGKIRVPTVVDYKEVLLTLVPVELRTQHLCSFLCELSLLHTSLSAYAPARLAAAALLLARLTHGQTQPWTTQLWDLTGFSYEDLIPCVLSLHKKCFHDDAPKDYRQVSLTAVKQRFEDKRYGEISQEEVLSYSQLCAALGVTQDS
Under “normalised enrichment score”, `HKTFRKLRLFRTP [D11R]` is recorded as 2.21.
Under “normalised enrichment score”, `HKTFRKLYLFDTP [R8Y]` is recorded as 4.76.
Under “normalised enrichment score”, `HKCFRKLRLFDTP [T3C]` is recorded as 1.95.
For `HKTFRKLRLFPTP [D11P]`, “normalised enrichment score” read 2.32.
For `TKTFRKLRLFDTP [H1T]`, “normalised enrichment score” read 1.5.

Single results of other studies
The fold induction of `PhoQ, residues 284 288 289 292 302 303 ASVMEA` is reported as 10.1 (PhoP, residues 12 14 15 18 19 LHSVW (Escherichia coli, UniProt P23836); Sort-seq, measured: YFP reporter; E. coli; PhoQ-PhoP variant library, together with: 10 µM Mg2+; baseline: high Mg2+ state, higher = stronger signaling).

For quick reference, copied from above (set 3):
Under “normalised enrichment score”, `HKCFRKLRLFDTP [T3C]` is recorded as 1.95.
